Experimental data gathered from unrelated publications.
Each numbered part is a random draw from the data of one study; scales do not carry over between parts.

Sample 1 — method: protein-binding microarray; molecule type: double-stranded DNA, one strand shown; medium: in vitro; tested at: 2540 nM top; notes: 60-bp whole probe; with: salmon DNA 0.4 mg/ml; baseline: random background probes; direction: higher = stronger binding; all sequences stand within: GCCTAGCAC … GTCTTGATTCGCTTGACGCTGCTG
Target: Interferon regulatory factor 3, full length, phosphomimetic (IRF3, Homo sapiens, UniProt Q14653, residues 1-427, S386D/S396D/S398D/S402D/T404D/S405D)
Chain of UniProt Q14653 (whole entry, unmodified, looked up): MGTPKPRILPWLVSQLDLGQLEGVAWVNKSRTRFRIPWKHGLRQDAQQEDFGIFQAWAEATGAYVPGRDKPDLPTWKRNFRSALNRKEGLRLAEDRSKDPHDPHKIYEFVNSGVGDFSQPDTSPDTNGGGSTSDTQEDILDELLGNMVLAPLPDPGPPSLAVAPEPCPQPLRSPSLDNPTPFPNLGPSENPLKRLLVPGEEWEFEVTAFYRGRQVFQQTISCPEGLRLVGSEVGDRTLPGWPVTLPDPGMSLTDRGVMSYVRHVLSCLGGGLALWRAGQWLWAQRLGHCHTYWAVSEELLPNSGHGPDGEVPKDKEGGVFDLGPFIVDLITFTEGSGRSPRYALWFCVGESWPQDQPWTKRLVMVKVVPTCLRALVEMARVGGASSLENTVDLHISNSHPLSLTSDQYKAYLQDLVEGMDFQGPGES
`TCATAACTCAAGATTCCTACTGTGCTA`: “fitted relative affinity” 0.705 z-score.
Under “fitted relative affinity”, `GACGGATTCGGACTGGGGACGTGCTAG` is recorded as 0.698 z-score.
`ACAGCAAGCAGGGCCAGCCCGTGCTAG`: “fitted relative affinity” -1.21 z-score.
For `TTCATTATTGTTTCCTTCCTGTGCTAG`, “fitted relative affinity” read 4.46 z-score.
For `CACGATTTCAGTATCGAGACGTGCTAG`, “fitted relative affinity” read 1.92 z-score.
`GACTGTTTCGGTTTCGGGACGTGCTAG` — result for “fitted relative affinity”: 10.2 z-score.
Under “fitted relative affinity”, `TCAACACTGGTTTTTACACTGTGCTAG` is recorded as -0.276 z-score.
`TCCACTTTCTTTTGCTTGTTGTGCTAG` — result for “fitted relative affinity”: 1.85 z-score.
For `TCACACCAGAGGGCGCTGTGGTGCTAG`, “fitted relative affinity” read -0.793 z-score.
For `GACGGTCTCCTTCTCCTCACGTGCTAG`, “fitted relative affinity” read 4.03 z-score.
For `GATGATATCGGGTATCGAGACGTGCTA`, “fitted relative affinity” read -0.119 z-score.
`GTAGATTTCAGACTGGATTAGTGCTAG` — result for “fitted relative affinity”: 0.865 z-score.
Under “fitted relative affinity”, `TTAGGTTTCGGCTATCGGTTAGTGCTA` is recorded as 2.74 z-score.
Under “fitted relative affinity”, `TTTGATTTCAGTTCCGATTAGTGCTAG` is recorded as 3.87 z-score.
For `TCAGTTTCTGATATGGTACTGTGCTAG`, “fitted relative affinity” read 4.63 z-score.
For `TTAGATATGAGTCTCGATTAGTGCTAG`, “fitted relative affinity” read -0.223 z-score.
`TCAAAAATGAATATTAGACTGTGCTAG`: “fitted relative affinity” -0.166 z-score.
`CCTCTGCTCCTCTTTTTTTGGGTGCTA` — result for “fitted relative affinity”: 0.812 z-score.
`GATGAACTGAGTTTCGAGACGTGCTAG`: “fitted relative affinity” 1.11 z-score.
`TTAGGTTTCGGATATCGGTTAGTGCTA` — result for “fitted relative affinity”: 6.03 z-score.
`CACGGACTGGGGTTTCGGGACGTGCTA`: “fitted relative affinity” 0.55 z-score.
Under “fitted relative affinity”, `GACAGTTTCGGGACTGGGGACGTGCTA` is recorded as 4.65 z-score.
`TTAGGGTTCCTTTCCCTTTAGTGCTAG` — result for “fitted relative affinity”: 6.2 z-score.
`TCAAGGGTCTGTTTGGGACTGTGCTAG` — result for “fitted relative affinity”: -0.41 z-score.
For `GACAGACTGGACTATCGGGACGTGCTA`, “fitted relative affinity” read -0.362 z-score.

Sample 2 — method: RNA Bind-n-Seq; molecule type: RNA; medium: in vitro; tested at: not given; baseline: input RNA pool; direction: higher = stronger binding
Target: RING finger protein unkempt homolog, zinc fingers 1-6, GST-SBP tag (UNK, Homo sapiens, UniProt Q9C0B0, residues 30-357)
Chain of UniProt Q9C0B0 (30-357, looked up): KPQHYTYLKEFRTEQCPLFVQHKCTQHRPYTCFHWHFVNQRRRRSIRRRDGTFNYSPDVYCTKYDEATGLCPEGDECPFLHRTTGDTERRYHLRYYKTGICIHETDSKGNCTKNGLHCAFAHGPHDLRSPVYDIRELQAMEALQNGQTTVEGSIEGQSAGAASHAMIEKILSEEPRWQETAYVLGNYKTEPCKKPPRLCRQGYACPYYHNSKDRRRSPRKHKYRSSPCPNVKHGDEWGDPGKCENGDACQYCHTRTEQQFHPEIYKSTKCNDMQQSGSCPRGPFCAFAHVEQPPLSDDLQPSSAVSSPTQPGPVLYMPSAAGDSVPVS
Notes: RNA with constant flanks, human and mouse sites, ends assumed
The bound/input enrichment of `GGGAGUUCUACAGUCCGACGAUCACCACUGCACUUUCCAGACAAGCAGGCCAAGAAACUCUUUCAGUCCUCAAGUUCACCAAGUCUUAGCAUACAGUGUGUGCCCAGAACUACUGGAAACUGAAUGCAUUUAGCAUAUUUUGACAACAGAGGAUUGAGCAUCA` is reported as 0.475 ratio.
With `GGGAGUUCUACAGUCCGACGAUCAUUUAUAGAGGAGGUUCUAUCAAUGUGCCGACUUACUUUGUGUUUUAUGUUCUGAGAACGAUUACCAGCCAUCUCAAAUUCUGUGGUUGUCAAAGCUCCCCUGGGGUUGUUGCUGGUUGGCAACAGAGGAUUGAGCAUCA` the bound/input enrichment was 0.285 ratio.
`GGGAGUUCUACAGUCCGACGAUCGCCAUCCAGCACUGCCAUUCCCGUGGAGUUGUCCAUCGUGACAUCAAGGAUGAGAACAUCCUGAUAGACCUACGCCGUGGCUGUGCCAAACUCAUUGAUUUUGGUUCUGGUGCCCUGCUUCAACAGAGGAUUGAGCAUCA` has a bound/input enrichment of 0.178 ratio.
`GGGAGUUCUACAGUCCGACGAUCAUACUUCAGGGUCCUCUGUGGAGGAUGUCUUGAGCCAGAGUUUAAGCCUGACACACAGGCUUUGGUCCUCACUGAGCUGUCUCCAAGACUGGAACUACUUAGUGACUCGGCAAAUUUUCUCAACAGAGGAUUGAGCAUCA` gave a bound/input enrichment of 0.175 ratio.
`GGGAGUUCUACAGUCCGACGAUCGAGUUAGGAUCUGAAGGAAAGGUAGAAGAAGCCCAGGGAAUGAUGAAAUUGGUUGAACAGUUAAAGGAAGAGAGAGAAUUACUAAGAUCUACAACCUCGACUAUAGAAAGUUUUGCUGCCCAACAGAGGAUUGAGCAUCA` gave a bound/input enrichment of 40.4 ratio.
`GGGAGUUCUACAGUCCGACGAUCUUGGGGAAAUAUAUGUGUGGCUCUCCUAAGUAUUUCCAUGAAGGAAACACCCACAAUCCUGUGGUGUUCAUCUUUUGACAAAUGCAAAUACUUCCCUCAUCAGUCAGCUCCUACUGAACUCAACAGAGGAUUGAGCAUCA` has a bound/input enrichment of 0.143 ratio.
`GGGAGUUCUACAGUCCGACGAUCAGCUUCUACAGAACCAGAACCUUGCAGGCAUUAAGUAAUGAGAAGAAGGCCAAGAAGGUACGUUUCUACCGCAAUGGGGACCGUUACUUCAAGGGGAUUGUGUACGCUGUUUCUUCUGACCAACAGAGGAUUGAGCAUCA` gave a bound/input enrichment of 0.101 ratio.
`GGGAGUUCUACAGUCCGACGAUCUCCCAUGACCAGAGGACUCUGAUCACUGGCAUGGCUUCUGGUAGCAUUGUAGCUUUUAAUAUAGAUUUUAAUCGGUGGCAUUAUGAGCAUCAGAACAGAUACUGAAGAUAAAGGAAGAACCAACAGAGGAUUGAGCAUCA` gave a bound/input enrichment of 9.13 ratio.
With `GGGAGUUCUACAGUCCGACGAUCUCAUCGACCACCAUGACAACACCUACACAGUCAAGUACACGCCUGUCCAGCAGGGUCCAGUAGGCGUCAAUGUCACUUAUGGAGGGGAUCCCAUCCCUAAGAGCCCUUUCUCAGUGGCAGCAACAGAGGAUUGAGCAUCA` the bound/input enrichment was 0.186 ratio.
The bound/input enrichment of `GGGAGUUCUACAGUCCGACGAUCGACAGGGUAGGUGAUAUCCAUAUUUUGGAAGUCACAAAUAACCUAGAGCAUAAGUCCACUUUUAGUAUUUCGAAUUUUCUUAACAAGAGCAGAGGAAAUAACUUUACUGCAAAUCAGAACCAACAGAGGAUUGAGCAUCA` is reported as 2.51 ratio.
With `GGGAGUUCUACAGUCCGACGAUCGAUCUUGAGAGUUUGGACAAACUUAUGAAAACUAAAAACAUACCUGAAGCUCACCAAGAUGCAUUUAAAACUGGUUUUGCAGAGGGUUUUCUCAAAGCUCAAGCUCUUACACAGAAGACCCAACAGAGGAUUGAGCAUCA` the bound/input enrichment was 0.151 ratio.

Sample 3 — method: universal PBM; molecule type: double-stranded DNA, one strand shown; medium: in vitro; tested at: not given; direction: higher = stronger binding
Target: Sal-like protein 4, full length isoform B (SALL4, Homo sapiens, UniProt Q9UJQ4-2, residues 1-616)
Notes: 8-mer, flanks averaged, mean of replicates
Target sequence (chain): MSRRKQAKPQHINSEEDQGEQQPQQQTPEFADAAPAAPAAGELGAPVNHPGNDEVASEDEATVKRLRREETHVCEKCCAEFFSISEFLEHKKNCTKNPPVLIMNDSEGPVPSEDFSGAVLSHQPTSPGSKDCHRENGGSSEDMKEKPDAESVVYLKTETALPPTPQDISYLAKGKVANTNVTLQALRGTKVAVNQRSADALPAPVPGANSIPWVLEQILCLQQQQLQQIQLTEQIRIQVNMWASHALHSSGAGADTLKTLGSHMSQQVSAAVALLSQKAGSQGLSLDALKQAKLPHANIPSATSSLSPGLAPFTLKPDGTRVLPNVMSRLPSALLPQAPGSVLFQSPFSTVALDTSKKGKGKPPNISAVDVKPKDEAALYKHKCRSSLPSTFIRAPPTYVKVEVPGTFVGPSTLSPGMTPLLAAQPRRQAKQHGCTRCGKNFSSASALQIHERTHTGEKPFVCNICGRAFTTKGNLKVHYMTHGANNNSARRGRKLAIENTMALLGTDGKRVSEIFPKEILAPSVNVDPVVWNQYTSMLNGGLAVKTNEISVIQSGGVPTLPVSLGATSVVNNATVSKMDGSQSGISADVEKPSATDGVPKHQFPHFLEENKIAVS
For `CTGCATAA`, the E-score was 0.197.
`AAGAGAAC` gave an E-score of 0.048.
`ACGCAGTG` gave an E-score of -0.238.
`ATGGAAAT` gave an E-score of 0.268.
`ACCGATAA` has an E-score of 0.194.
The E-score of `AGTGAGGC` is reported as -0.221.
For `AGCTCAGC`, the E-score was -0.231.
With `TGGACTAA` the E-score was 0.0368.
The E-score of `ATTCCACG` is reported as 0.0483.
`CCAGAGAC` gave an E-score of -0.286.
`ATAAAAGC` gave an E-score of 0.236.
With `CGGGACTA` the E-score was -0.135.
`ATAGGCTG` gave an E-score of -0.0039.
`AGACCCGA` has an E-score of -0.185.
`GTGGCAAC` has an E-score of -0.198.
`ATGTTGAG` gave an E-score of 0.162.
With `ACCGGCAA` the E-score was -0.358.
`CTGTACAC` has an E-score of 0.0517.
For `CGTTCTTC`, the E-score was 0.00519.
The E-score of `ATGCCTAA` is reported as 0.12.
For `ATAGGGCC`, the E-score was -0.207.
With `CGGCGAGA` the E-score was -0.214.
The E-score of `CAGTCCGG` is reported as -0.298.
For `CACGACAG`, the E-score was -0.0621.
The E-score of `CTCAAAAG` is reported as -0.00201.

Sample 4 — method: RNAcompete; molecule type: RNA; medium: in vitro; tested at: 20 nM; notes: 7-mer, probes averaged, single round; baseline: mean of 7-mers; direction: higher = stronger binding
Target: PABPC1L2, full length, GST fusion (mouse, UniProt A0ABA7IW68)
Construct (chain): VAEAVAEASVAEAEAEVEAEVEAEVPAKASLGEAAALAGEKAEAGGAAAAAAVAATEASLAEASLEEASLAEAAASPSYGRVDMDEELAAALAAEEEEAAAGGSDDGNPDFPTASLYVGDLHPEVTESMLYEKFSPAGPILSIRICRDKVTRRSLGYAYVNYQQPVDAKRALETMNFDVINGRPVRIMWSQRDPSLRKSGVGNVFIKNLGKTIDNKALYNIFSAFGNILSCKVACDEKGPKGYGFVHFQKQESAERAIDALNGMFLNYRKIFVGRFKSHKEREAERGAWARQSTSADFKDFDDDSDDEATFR
With `UUCAGUG` the 7-mer Z-score was -0.271.
`CCAUUUA` gave a 7-mer Z-score of 0.289.
`ACCUCAG` has a 7-mer Z-score of -0.171.
`CUGGACU` has a 7-mer Z-score of -0.115.
`GAUUAAG` has a 7-mer Z-score of -0.0536.
The 7-mer Z-score of `AUUACCU` is reported as -0.269.
With `AUAGCGA` the 7-mer Z-score was -0.101.
The 7-mer Z-score of `ACGCCUA` is reported as -0.2.
`CUAUGUG` gave a 7-mer Z-score of -0.151.
For `UUUAGCC`, the 7-mer Z-score was -0.0591.
For `GGGAAUG`, the 7-mer Z-score was 0.253.
`UUAGGAU` has a 7-mer Z-score of -0.0138.
With `CAUCGAA` the 7-mer Z-score was 0.0533.
For `CGUCCGC`, the 7-mer Z-score was -0.378.
For `UUACUAU`, the 7-mer Z-score was -0.151.
The 7-mer Z-score of `UCGUUUG` is reported as -0.597.
The 7-mer Z-score of `GCCGAUU` is reported as -0.257.
`CUACGGU` has a 7-mer Z-score of -0.17.
`UAGGUCC` has a 7-mer Z-score of -0.171.
`UCUAGCA` gave a 7-mer Z-score of -0.226.
`GCCGCUU` gave a 7-mer Z-score of -0.271.
`AAAUACG` has a 7-mer Z-score of 1.98.
`AGCCAUA` has a 7-mer Z-score of -0.101.

Sample 5 — method: RNA Bind-n-Seq; molecule type: RNA; medium: in vitro; tested at: 20 nM; notes: 6-mer, flanks averaged, single round; with: 150 mM KCl; baseline: input library; direction: higher = stronger binding
Target: TAR DNA-binding protein 43, full length, His tag (TARDBP, Homo sapiens, UniProt Q13148, residues 1-414)
For `GUGCAC`, “6-mer enrichment (R)” read 0.935.
`GCCUGG`: “6-mer enrichment (R)” 1.53.
`GGCCGC` — result for “6-mer enrichment (R)”: 1.55.
Under “6-mer enrichment (R)”, `UGACAU` is recorded as 0.656.
`GUUUCA` — result for “6-mer enrichment (R)”: 0.597.
Under “6-mer enrichment (R)”, `GAGCUG` is recorded as 1.35.
`GAGGGC`: “6-mer enrichment (R)” 4.88.
For `UCGUCA`, “6-mer enrichment (R)” read 0.621.
For `GAAACG`, “6-mer enrichment (R)” read 0.988.
Under “6-mer enrichment (R)”, `UCUUGG` is recorded as 0.853.
For `GAGCGA`, “6-mer enrichment (R)” read 1.49.
`GUAACG`: “6-mer enrichment (R)” 0.959.
Under “6-mer enrichment (R)”, `GUUCCC` is recorded as 0.64.
For `GUGGUU`, “6-mer enrichment (R)” read 1.28.
For `UCUGAA`, “6-mer enrichment (R)” read 0.63.
For `UAACGC`, “6-mer enrichment (R)” read 0.633.
`AGUGGA` — result for “6-mer enrichment (R)”: 1.57.
